# Measurements from different studies.
# Each line is one published result; not all experiments were run side by side. Values joined by “and” are separate records of one study, mostly repeats; a detail may differ. ± marks the error that the study gave.
# Cell line: HepG2
Compound,test,conditions,how to read,endpoint,result
NC(=O)c1ccc(-c2ccccc2Cl)c2c3c([nH]c12)CCC(N)C3 (stereo not shown),cell growth or viability,,,IC50,0.02 µM
CCN(C(=O)c1cc(F)ccc1Oc1nncnc1N1CCC2(C1)CN([C@H](CCCN(C)CCOC)C(C)C)C2)C(C)C,cell growth or viability,72 h,,GI50,> 10 µM
CCOC(=O)c1ccc(NC(=O)C(C#N)=C2C(=O)c3ccccc3C2=O)cc1,"cell growth or viability, MTT","12.5 µM, 24 h",,viability,64.2%
CCC(=[NH+][Pt-2]1([Cl])([O]C(=O)CC(C)C)([O]C(=O)CC(C)C)[NH2+]CCC[NH2+]1)N(C)CCNc1c2ccccc2[nH+]c2ccccc12.O=[N+]([O-])[O-].O=[N+]([O-])[O-],,"72 h, together with: pyrimethamine 1 µM",baseline: with over without pyrimethamine,IC50 fold shift,160 fold
CN1CCC(N[C@H]2CCc3[nH]c4c(C(N)=O)ccc(-c5ccccc5Cl)c4c3C2)CC1,cell growth or viability,,,IC50,1.09 µM
C/C(=N\N=C1/NC(=O)CS1)c1c(O)c2ccccc2oc1=O,"cell growth, MTT",,baseline: IC50 BJ-1 over HepG2,selectivity index,> 1.02
COc1ccc(NC(=O)c2c(Nc3ccccc3)sc(C(=O)N/N=C/c3ccc(OC)c(OC)c3)c2NC(C)=O)cc1,"cell growth or viability, SRB","10 nM, 48 h",,viability,86.4%
NC(=O)c1cn([C@@H]2O[C@H](CO)[C@@H](O)[C@H]2O)c2ncnc(N)c2c1=O,cell growth or viability,,,IC50,1.5 µM
CCNC(=S)N/N=C(\C)c1c(O)c2ccccc2oc1=O,"cell growth, MTT",,baseline: IC50 BJ-1 over HepG2,selectivity index,> 2.16
CC(=O)[O][Pt]([NH2])([NH2])([Cl])([Cl])[O]C(=O)CCC(C)C1CCC2C3CCC4CC(O)CCC4(C)C3CCC12C (stereo not shown),"cell viability, MTT",72 h,,IC50,2.5 ± 0.2 µM
CC1(C)CC[C@@]2(CO)C(=C3C=C[C@@H]4[C@@]5(C)CC[C@H](O)[C@@](C)(CO)[C@@H]5CC[C@@]4(C)[C@]3(C)C[C@@H]2O)C1,"Western blot, measured: PPAR-α","7.5 µM, no ethanol, unit not given",baseline: β-actin,protein level,1.37 and 3.13 and 2.13
CC[C@H](C)[C@H](NC(=O)[C@@H](NC(=O)[C@@H]1CCCN1C(=O)[C@@H](NC(=O)[C@@H](NC(=O)[C@@H]1CCCN1C(=O)[C@H](CC(C)C)NC(=O)[C@@H](NC(=O)[C@@H](NC(=O)[C@H](Cc1c[nH]cn1)NC(=O)[C@@H]1CCCN1C(=O)[C@H](CC(C)C)NC(=O)[C@@H](NC(=O)[C@H](Cc1c[nH]cn1)NC(=O)[C@H](CCCCN)NC(=O)[C@H](C)NC(=O)[C@@H](NC(=O)[C@H](CO)NC(=O)CNC(=O)[C@H](CC(C)C)NC(=O)[C@@H](NC(=O)[C@H](CO)NC(=O)[C@H](CC(C)C)NC(=O)[C@H](CC(C)C)NC(=O)CN)C(C)C)C(C)C)C(C)C)C(C)C)C(C)C)C(C)C)C(C)C)C(C)C)C(=O)N[C@@H](C)C(=O)N[C@@H](CCC(=O)O)C(=O)N[C@@H](Cc1c[nH]cn1)C(=O)N[C@@H](CC(C)C)C(N)=O,,"5 µg/mL, 24 h",,growth inhibition,no inhibition
Cc1ccc2c(Cl)cc(Cl)c([O-])c2n1.Cc1ccc2c(Cl)cc(Cl)c([O-])c2n1.[Co+2].c1ccc2nc3c4cccnc4c4ncccc4c3nc2c1,"cell growth or viability, MTT",48 h,,IC50,0.12 µM
O=C1C(Cl)=C(Cl)C(=O)c2c(O)ccc(O)c21,MTT,,baseline: IC50 MRC-5 over IC50 HepG2,selectivity index,1.29
CCOC(=O)c1ccc(-n2c(N)c(C#N)c(SC)c(C#N)c2=O)cc1,"cell growth or viability, MTT","100 µM, 24 h",,viability,30.2%
Cc1ccc(C(C)C)cc1.Cc1ccc(C(C)C)cc1.Cc1ccc(C(C)C)cc1.Cc1ccc(C(C)C)cc1.O=S(=O)(O)C(F)(F)F.O=S(=O)(O)C(F)(F)F.O=S(=O)(O)C(F)(F)F.O=S(=O)(O)C(F)(F)F.c1ccc2c3c4ccccc4c(c2c1)-c1cn(nn1)-c1cc[n+](cc1)[Ru-]1[O]c2c4ccccc4c4c5c(c6ccccc6c(c25)=[O+]1)=[O+][Ru-]([O]4)[n+]1ccc(cc1)-n1cc(nn1)-c1c2ccccc2c(c2ccccc12)-c1cn(nn1)-c1cc[n+](cc1)[Ru-]1[O]c2c4ccccc4c4c5c(c6ccccc6c(c25)=[O+]1)=[O+][Ru-]([O]4)[n+]1ccc(cc1)-n1cc-3nn1,"cell growth, MTT","24 h, after 24 h preincubation in medium at 37 °C",,IC50,4.3 ± 0.57 µM
COc1ccc2cc3[n+](cc2c1OCCCOC(=O)c1cscn1)CCc1cc2c(cc1-3)OCO2,"measured: TC, TG, LDL-C","10-20 µM, 24 h, together with: oleic acid 1 mmol/L",baseline: oleic acid alone,lipid levels,decreased
O=C1C(Br)=C(Br)C(=O)c2ccccc21,MTT,,baseline: IC50 MRC-5 over IC50 HepG2,selectivity index,5.14
Cc1ccc2c(Cl)cc(Cl)c([O-])c2n1.Cc1ccc2c(Cl)cc(Cl)c([O-])c2n1.[Co+2].c1ccc(-c2ccccn2)nc1,"cell growth or viability, MTT",48 h,,IC50,8.36 µM
CC(C)(C)NC(=O)CC(NC(=O)CCc1ccccc1)C(=O)NCCNC(=O)c1cccc(-c2ccccc2)c1 (stereo not shown),cytotoxicity,,,EC50,3.67 µM
Cc1c(C)c2cccnc2c2ncccc12,"cell growth or viability, MTT",48 h,,IC50,> 50 µM
CCn1c(-c2ccccc2)cs/c1=N/N=C(\C)c1c(O)c2ccccc2oc1=O,"cell growth, MTT",,baseline: IC50 BJ-1 over HepG2,selectivity index,> 1.15
